Assay results from different studies.
“And” joins repeats or separate records; there may be more than shown. ± gives the spread as reported. ≈ marks a conversion by molar mass, not a printed value.

SMILES	organism	assay	test system	setting	how to read	endpoint	result
O=C(Nc1ccc2c(c1)CN(c1ccc(Cl)c(Cl)c1)C2=O)N1CCN(c2ccc(Cl)cc2)CC1	Trypanosoma brucei brucei	parasite growth, resazurin	Squib 427	3 d		IC50	6.9 µM
COC(=O)C(CS[Se][C@@H]1O[C@H](COC(C)=O)[C@@H](OC(C)=O)[C@H](OC(C)=O)[C@H]1NC(C)=O)NC(=O)OC(C)(C)C (some centres unmarked)	Trypanosoma brucei brucei		bloodstream form	5 µM, 24 h, 1 % DMSO		viability	120 ± 6.4%
COc1ccc(NC(=O)N2CCCN3CC[C@H](c4ccc(-c5ccccc5)cc4)[C@@H]3C2)cc1	Toxoplasma gondii		HFF, RH (type I)	concentration not given		growth inhibition	inactive
O=C(N[C@@H](CC1CCCCC1)C(=O)N[C@@H](C[C@H]1CCNC1=O)C(=O)C(=O)NC1CC1)OCc1cccc(Cl)c1	human rhinovirus 1B	viral replication	WI-38	37 °C		EC50	0.08 ± 0.01 µM
C#CCN1CCc2c([nH]c3ccccc23)C(=C)C1=O	hepatitis B virus	HBsAg secretion	HepAD38		baseline: CC50 over IC50	selectivity index	13.9
Cc1ncnc(C)c1-c1ccc(C(=O)N2CC[C@H](C(=O)Nc3cc(F)c(F)c(F)c3)C2)[nH]1	hepatitis B virus	refers to: intracellular HBV DNA	HepG2.2.15	1 µM, 144 h	baseline: vehicle	HBV DNA remaining	32%
COC(=O)/C=C/c1ccc(OCCNS(C)(=O)=O)c(OC)c1	tobacco mosaic virus	inactivation activity, half-leaf method				EC50	419.3 ± 3.8 µg/mL
O=C(Nc1ccccc1Nc1ccccc1)c1cccnc1F	Sclerotinia sclerotiorum	microbial growth		50 µg/mL		inhibition	30.6%
O=C(Nc1ccccc1)N1CCCN2CCC(c3ccc(C#Cc4ccccc4)cc3)C2C1 (centres unmarked)	Toxoplasma gondii	parasite growth	HFF, RH type I luciferase			EC90	4.82 ± 0.13 µM
O=C(N[C@@H](Cc1ccccc1)C(=O)N[C@@H](C[C@H]1CCNC1=O)C(=O)C(=O)NC1CC1)OCc1ccccc1	human rhinovirus 51	viral replication	WI-38	37 °C		EC50	0.07 ± 0.03 µM
O=C(Nc1ccccc1)N1CCCN2CCC(c3ccc(C#Cc4cncnc4)cc3)C2C1 (centres unmarked)	Toxoplasma gondii	parasite growth	HFF, RH type I luciferase			EC90	> 10 µM
CCCCCC1CC2CCCC3CC(C)N=C(N1)N32 (centres unmarked)	Candida krusei	fungal growth	ATCC 6258			MFC	15.9 µM and 15 µM
CC1C=CC=CC(C)C2C=CC3CC(C)(O)C(Cl)C(C)C3C2C(=O)C(Cl)(Cl)C(=O)C(C)C(=O)O1 (centres unmarked)	Staphylococcus aureus		MSSA and MRSA clinical isolates			MIC range	0.025 to 0.2 µg/mL (≈ 0.047 to 0.376 µM)
O=C(NC1CCCCC1)N1CCCN2CCC(c3ccc(C#Cc4ccccc4)cc3)C2C1 (centres unmarked)	Toxoplasma gondii	parasite growth	HFF, RH type I luciferase			EC90	> 10 µM

For quick reference, copied from above:
SMILES	organism	assay	test system	setting	how to read	endpoint	result
O=C(NC1CCCCC1)N1CCCN2CCC(c3ccc(C#Cc4ccccc4)cc3)C2C1 (centres unmarked)	Toxoplasma gondii	parasite growth	HFF, RH type I luciferase			EC90	> 10 µM
